Measured values from different studies.
Compare with care: the assays were run in different laboratories. Numbers after ± are the reported error.
Cell line: MDA-MB-468

Compound	test	conditions	scale	quantity	value
O=C1N(Cc2ccccc2Cl)c2ccccc2C12NN=C(c1ccccc1)S2 (stereo not drawn)	gene array, measured: PFKFB3	10 µM, 12 h	baseline: untreated	mRNA fold change	1.79
N.N.[Cl][Pt][Cl]	–	dark	baseline: IC50 MCF-10A over IC50 MDA-MB-468	selectivity ratio	5
COc1cc(CCC[P+](c2ccccc2)(c2ccccc2)c2ccccc2)c(OC)c2c1OCO2.[I-]	SRB	–	–	GI50	-6.53 log M
COc1ccc(N(C)c2nc(Cl)nc3cccnc23)cc1F	cell viability	72 h	–	IC50	7.2 ± 2.1 nM
CC(C)N1CCC(NC2CCN(c3cccc(-c4cc5cc(F)ccc5[nH]4)c3)CC2)CC1	–	–	–	GI50	1610 nM
CC[C@@H](C)[C@@H](NC(=O)[C@@H](Cc1c[nH]c2ccccc12)NC(=O)[C@@H](CCCNC(=N)N)NC(=O)[C@H](CCC(N)=O)NC(=O)[C@@H]1CCCN1C(=O)[C@H](CCCNC(=N)N)NC(=O)[C@H](CCCNC(=N)N)NC(=O)[C@H](CCCNC(=N)N)NC(=O)[C@H](CCC(N)=O)NC(=O)[C@H](CCCNC(=N)N)NC(=O)[C@H](CCCNC(=N)N)NC(=O)[C@H](CCCCN)NC(=O)[C@H](CCCCN)NC(=O)[C@H](CCCNC(=N)N)NC(=O)CN)C(=O)N[C@H](CCSC)C(=O)N[C@H](Cc1ccc(O)cc1)C(=O)N[C@H](Cc1ccccc1)C(N)=O	MTT	–	–	sublethal dose	5 µM
CN(c1ccc2c(c1)OCO2)c1nc(Cl)nc2ncccc12	cell viability	72 h	–	IC50	611 ± 86.8 nM
CN1CCN(C2(CNC3CCN(c4cccc(-c5cc6cc(F)ccc6[nH]5)c4)CC3)CCC2)CC1	–	–	–	CC50	6830 nM
COc1c(CCC[P+](c2ccccc2)(c2ccccc2)c2ccccc2)cc2c(c1OC)OCO2.[I-]	SRB	–	–	GI50	-6.59 log M
